Experimental data from different studies.
Protocols differ between the studies behind these lines. Values joined by “and” are separate records of one study, mostly repeats; a detail may differ. ± marks the error that the study gave.

`COc1cc(Nc2ncc3c(n2)-c2ccc(Cl)cc2C(c2c(F)cccc2OC)=NC3)ccc1C(=O)O`: “patients with adverse event” 21% (refers to: Hypercalcemia, grade 1; cancer patients, phase 1/2; oral, dose not given, added: pembrolizumab).
The Css,max of `C=CC(=O)Nc1cc(Nc2nccc(Nc3cc(Cl)c(F)cc3C(C)(C)O)n2)c(OC)cc1N1CC[C@@H](N(C)C)C1` is reported as 976 ng/mL (human patients, plasma; oral, 400 mg daily, cycle 2 day 1, geometric mean).
`OC[C@H]1O[C@@H](c2ccc(F)c(Cc3cc4ccccc4s3)c2)[C@H](O)[C@@H](O)[C@@H]1O` — result for “hypoglycaemia-related adverse event”: 4% (Japanese patients, type 1 diabetes; oral, 100 mg/day, onset day 7; relative to: patients).
`Cc1nc2cccc(OCC(C)(C)C(=O)NC(C)C)c2c(N)c1C(=O)O` — result for “micronucleated NCE per 2000 PCE”: 0.9 (male Swiss albino CD-1 mouse, bone marrow; oral, 500 mg/kg, 24 h).
Under “minimum ACTH level”, `N#Cc1ccc2c(c1)[C@H]1CCCN(C(=O)c3ccc4[nH]cnc4c3)[C@H]1C2` is recorded as 3.5 pmol/L (human; 360 mg, day 7).
`COc1ccc2c(=O)n(C)c(-c3ccccc3)nc2c1` gave a tissue concentration of 32.4 ng/g (male Sprague-Dawley rat, testis; oral, 30 mg/kg, 0.5 h).
The serum concentration of `CC(=O)c1ccc([C@H]2C[C@@]3(C)[C@@H](CC[C@@]3(O)C(F)(F)C(F)(F)F)[C@@H]3CCC4=CC(=O)CCC4=C32)cc1` is reported as 9.5 ng/mL (human, pooled serum; oral, 200 mg, day 1, 0.5 h).
For `CCO[C@H]1CCN(Cc2c(OC)cc(C)c3[nH]ccc23)[C@H](c2ccc(C(=O)O)cc2)C1`, the unbound AUCinf was 3930 ng·h/mL (human healthy controls, plasma; oral, 200 mg single dose, mean).
For `CCNCCNC(=O)c1c(C)[nH]c(/C=C2\C(=O)Nc3ccc(F)cc32)c1C`, the serum concentration was 14.8 ng/mL (human, serum; 37.5 mg maintenance dose).
`CNC(=O)c1ccc(-c2cnc3ncc(Cc4ccc5ncccc5c4)n3n2)cc1F` gave a Tremor patients of 1% (Japanese patients; oral, 400 mg twice daily, any grade).
The compound remaining of `Cc1cc(NC(=O)c2cccc(NC(=O)/C=C/CN(C)C)c2)ccc1Nc1nccc(-c2cccnc2)n1` is reported as 81.6% (metabolic stability; Wistar rat, male, primary hepatocytes; 1 µM, 30 min).
`CN1CCN(c2cccc3c2CCN(C(=O)/C=C/c2c(-n4cnnn4)ccc(Cl)c2F)[C@@H]3C(=O)Nc2ccc(C(=O)O)cc2)C(=O)C1` — result for “subjects with skin irritation”: 11.1% (healthy human subjects; intravenous infusion, 1 mg/h, 5 days).
With `Cc1cc(-c2nccc3c2ccn3CC(=O)Nc2ccc(-c3cnccn3)cn2)ccn1` the post-procedural inflammation was 0% (human; 5 mg once daily, multiple ascending dose).
For `Cc1ccc([C@@H]2O[C@H](CO)[C@@H](O)[C@H](O)[C@H]2O)cc1Cc1ccc(-c2ccc(F)cc2)s1`, “urinary calcium excretion change” read -30.8 mg (Japanese type 2 diabetes patients; 200 mg, day 15, 24 h urine collection; relative to: baseline).
For `O=C(Nc1nc2cccc(-c3ccc(CN4CCS(=O)(=O)CC4)cc3)n2n1)C1CC1`, “treatment-emergent adverse events” read 5.9% (refers to: cardiac disorders; human rheumatoid arthritis patients; oral, 30 mg once daily, 4 weeks, regardless of relatedness).
For `C=CC(=O)N1CCC([C@@H]2CCNc3c(C(N)=O)c(-c4ccc(Oc5ccccc5)cc4)nn32)CC1`, “stability relative error” read 5.7% (rat plasma; 400 ng/mL, 4 h, 10 °C, autosampler; relative to: nominal concentration).
`COc1cc(CCC(=O)O)ccc1O[C@@H]1O[C@H](C(=O)O)[C@@H](O)[C@H](O)[C@H]1O` gave a CSF concentration of 1.7 nM (human, cerebrospinal fluid; concentration not given, mean).
Under “adverse event incidence”, `Cc1c(C(=O)O)ccc2c3n(nc12)[C@@H]1[C@H](C3)N(CC2CC2)[C@@]2(C(=O)Nc3cc(Cl)ccc32)[C@H]1c1cccc(Cl)c1F` is recorded as 44% (phase Ia trial, refers to: Diarrhea; cancer patients; oral, dose not given).
`Cc1ncnc2c1ccn2[C@@H]1C[C@H](Oc2cc(C(F)F)c(F)c3c2CNCC3)[C@@H](O)[C@H]1O` has an accumulation ratio of 13.1 and 4.56 (human; oral, 2 mg twice daily; relative to: AUC(tau) multiple over single dose).
For `CCOc1ccc2ccc(=O)oc2c1`, the hepatic clearance was over 28.4 mL/min/kg (Beagle dog, male, hepatocytes; 1 µM).
`Cn1cnc2c(F)c(Nc3ccc(Br)cc3Cl)c(C(=O)NOCCO)cc21` — result for “zero-order absorption duration”: 0.65 h (population PK model; human, plasma; oral, zero-order absorption model, fasted).
The rectal temperature of `CO[C@H]1C[C@@H]2CC[C@@H](C)[C@@](O)(O2)C(=O)C(=O)N2CCCC[C@H]2C(=O)O[C@H]([C@H](C)C[C@@H]2CC[C@@H](O)[C@H](OC)C2)CC(=O)[C@H](C)/C=C(\C)[C@@H](O)[C@@H](OC)C(=O)[C@H](C)C[C@H](C)/C=C/C=C/C=C/1C` is reported as 36.8 ± 0.3 °C (healthy adult horses; oral, 0.06 mg/kg, 48 h).
`N#C[C@@]12C[C@@H]1[C@@H](n1cnc3c(N[C@@H](C4CCC4)C4CC4)nc(I)nc31)[C@H](O)[C@@H]2O` — result for “elimination rate constant”: 4.47e-05 s⁻¹ (Wistar rats male, plasma; oral, 3.0 mg/kg).
For `OC[C@H]1OC(O)[C@H](O)[C@@H](O)[C@@H]1O` (stereo partly drawn), the osmolality was 0 mOsmol/kg (aqueous solution; 2 mM, added: glucosamine).
For `O=C(COc1ccc(Cl)cc1)NC12CC(c3nnc([C@H]4C[C@@H](OC(F)(F)F)C4)o3)(C1)C2`, the muscle spasms was 11.1% (humans; 200 mg once daily).
With `CN(CC#N)C(=O)C[C@H](Nc1nc2ccccc2[nH]1)c1cccc(C(F)(F)F)c1` the apparent clearance was 10.9 ± 3.99 L/h (human; intravenous infusion, 2 mg/kg, 10 mg/mL formulation).
The recovery of `C=CC(=O)Nc1cc(Nc2nccc(-c3cn(C)c4ccccc34)n2)c(OC)cc1N(C)CCN(C)C` is reported as 71.8% (storage stability; human plasma; 72 h, on ice, LLOQ level).
Under “decrease in relative bioavailability”, `C[C@@H]1[C@H](c2c(F)ccc(F)c2F)C[C@H](NC(=O)c2cnc3c(c2)C[C@@]2(C3)C(=O)Nc3ncccc32)C(=O)N1CC(F)(F)F` is recorded as 15% (human patients, plasma; oral, population PK model, added: famotidine; relative to: no famotidine).
The logP of `CCCC(=O)Nc1cc(C2CC2)[nH]n1` is reported as 1.68 (octanol/buffer, 40 mM buffer; pH 11).
Under “absolute neutrophil count”, `CC1(C)CCC(CN2CCN(c3ccc(C(=O)NS(=O)(=O)c4ccc(NCC5CCOCC5)c([N+](=O)[O-])c4)c(Oc4cnc5[nH]ccc5c4)c3)CC2)=C(c2ccc(Cl)cc2)C1` is recorded as 100 cells/µL (human; 400 mg).
For `O=C1Nc2ccc3ncsc3c2/C1=C/Nc1ccc2c(c1)CS(=O)(=O)C2`, the logP was 2.52 (octanol/buffer; pH 11).
`Cn1ncnc1[C@H]1c2n[nH]c(=O)c3cc(F)cc(c23)N[C@@H]1c1ccc(F)cc1` gave an accumulation half-life of 34.1 h (human patients, plasma; oral, 600 µg/m2, dose level DL5, median, added: temozolomide 40 mg/m2 daily days 2-6).
For `O=C(CSc1nnc(-c2ccncc2)o1)Nc1ccc(F)cc1`, the logP was 0.08 (octanol/buffer; pH 11, known kinase inactives set).
`Cc1cc(NC2CCN(C(=O)OC3CCN(C(=O)/C=C/CN(C)C)C3)CC2)n2ncc(C(C)C)c2n1` (stereo not drawn) — result for “patients with Asthenia”: 0% (patients with advanced solid tumours; dose not given, QD arm, grade 3 or higher).
`CC(C)C1=NCCc2ccc(NC(=O)c3cc(Br)c4cc(C(=N)N)ccc4c3)cc21` has a logP of 4.18 (octanol/buffer; pH 11, urokinase ligand set).
Under “accumulation ratio (Cmax)”, `C[C@H](Oc1ccc(Br)cc1-c1ccon1)C(=O)O` is recorded as 0.818 (human, plasma; 200 mg once daily, day 10; relative to: day 1).

A few entries again:
`Cn1ncnc1[C@H]1c2n[nH]c(=O)c3cc(F)cc(c23)N[C@@H]1c1ccc(F)cc1` gave an accumulation half-life of 34.1 h (human patients, plasma; oral, 600 µg/m2, dose level DL5, median, added: temozolomide 40 mg/m2 daily days 2-6).
For `O=C(CSc1nnc(-c2ccncc2)o1)Nc1ccc(F)cc1`, the logP was 0.08 (octanol/buffer; pH 11, known kinase inactives set).
`Cc1cc(NC2CCN(C(=O)OC3CCN(C(=O)/C=C/CN(C)C)C3)CC2)n2ncc(C(C)C)c2n1` (stereo not drawn) — result for “patients with Asthenia”: 0% (patients with advanced solid tumours; dose not given, QD arm, grade 3 or higher).
`CC(C)C1=NCCc2ccc(NC(=O)c3cc(Br)c4cc(C(=N)N)ccc4c3)cc21` has a logP of 4.18 (octanol/buffer; pH 11, urokinase ligand set).
Under “accumulation ratio (Cmax)”, `C[C@H](Oc1ccc(Br)cc1-c1ccon1)C(=O)O` is recorded as 0.818 (human, plasma; 200 mg once daily, day 10; relative to: day 1).
